Results of several laboratories.
Every numbered part comes from another study and shows a few of its results, in no order. Values joined by “and” are separate records of one study, mostly repeats; a detail may differ.
Chain of UniProt Q9P2K8 (whole entry, unmodified, looked up): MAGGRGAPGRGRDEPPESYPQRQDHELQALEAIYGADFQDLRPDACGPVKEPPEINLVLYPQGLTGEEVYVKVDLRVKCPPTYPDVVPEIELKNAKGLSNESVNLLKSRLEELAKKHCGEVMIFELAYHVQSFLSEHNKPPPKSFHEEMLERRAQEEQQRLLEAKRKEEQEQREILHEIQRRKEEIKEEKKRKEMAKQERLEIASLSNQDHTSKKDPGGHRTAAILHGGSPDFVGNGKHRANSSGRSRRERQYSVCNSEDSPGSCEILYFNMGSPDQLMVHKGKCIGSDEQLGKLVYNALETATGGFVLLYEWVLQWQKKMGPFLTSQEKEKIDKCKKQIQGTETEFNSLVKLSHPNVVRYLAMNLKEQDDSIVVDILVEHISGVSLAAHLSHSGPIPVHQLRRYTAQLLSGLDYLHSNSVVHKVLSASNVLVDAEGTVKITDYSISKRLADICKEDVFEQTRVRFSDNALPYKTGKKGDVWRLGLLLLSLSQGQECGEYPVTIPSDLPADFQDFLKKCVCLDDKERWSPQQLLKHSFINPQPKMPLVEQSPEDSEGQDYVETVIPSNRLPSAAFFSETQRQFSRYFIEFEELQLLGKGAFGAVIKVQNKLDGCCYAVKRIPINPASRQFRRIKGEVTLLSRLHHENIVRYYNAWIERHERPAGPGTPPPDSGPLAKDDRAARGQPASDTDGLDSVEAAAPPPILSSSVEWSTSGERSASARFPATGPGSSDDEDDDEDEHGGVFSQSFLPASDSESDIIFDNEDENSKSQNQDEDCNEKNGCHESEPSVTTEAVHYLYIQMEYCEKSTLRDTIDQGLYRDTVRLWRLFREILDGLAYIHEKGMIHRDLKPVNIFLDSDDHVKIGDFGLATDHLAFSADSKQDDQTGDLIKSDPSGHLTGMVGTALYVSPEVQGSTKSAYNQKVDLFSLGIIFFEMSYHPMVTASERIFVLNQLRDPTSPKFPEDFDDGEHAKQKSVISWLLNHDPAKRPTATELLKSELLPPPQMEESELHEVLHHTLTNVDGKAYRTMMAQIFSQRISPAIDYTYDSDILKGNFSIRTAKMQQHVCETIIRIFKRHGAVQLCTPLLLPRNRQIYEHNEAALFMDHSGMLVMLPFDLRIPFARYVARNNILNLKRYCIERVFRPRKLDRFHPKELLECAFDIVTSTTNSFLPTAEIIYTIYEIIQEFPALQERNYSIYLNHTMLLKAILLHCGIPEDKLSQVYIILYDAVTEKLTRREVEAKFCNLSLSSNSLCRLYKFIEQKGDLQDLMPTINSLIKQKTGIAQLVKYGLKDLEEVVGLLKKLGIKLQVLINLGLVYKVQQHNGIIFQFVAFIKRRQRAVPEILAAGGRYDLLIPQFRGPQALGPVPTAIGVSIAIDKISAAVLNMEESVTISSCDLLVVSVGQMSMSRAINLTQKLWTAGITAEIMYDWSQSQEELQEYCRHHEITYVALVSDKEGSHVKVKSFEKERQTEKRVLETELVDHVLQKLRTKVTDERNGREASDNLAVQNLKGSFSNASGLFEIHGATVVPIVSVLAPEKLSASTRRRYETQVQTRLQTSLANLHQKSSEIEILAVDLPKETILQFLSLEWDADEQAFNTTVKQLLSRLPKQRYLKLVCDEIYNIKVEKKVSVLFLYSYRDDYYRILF

Block 1
Target: Serine/threonine-protein kinase pim-3 (PIM3, Homo sapiens, UniProt Q86V86)
Read-out: enzyme activity
Mode: inhibitor
Tested at: 0.5 µM
Baseline: control
| SMILES | remaining activity |
| --- | --- |
| CCN(CC)CCNC(=O)c1c(C)[nH]c(/C=C2\C(=O)Nc3ccc(Cl)cc32)c1C | 74% |
| CCOc1nc(NC(=O)Cc2cc(OC)ccc2OC)cc(N)c1C#N | 95.2% |
| COc1cc2c(cc1OC)-c1[nH]nc(Nc3cccc(F)c3)c1C2 | 95.3% |
| CN([C@@H](Cc1ccc(OS(=O)(=O)c2cccc3cnccc23)cc1)C(=O)N1CCN(c2ccccc2)CC1)S(=O)(=O)c1cccc2cnccc12 | 113% |
| CCN(CC)C(=O)c1ccc(Nc2nc(OCC3CCCCC3)c3[nH]cnc3n2)cc1 | 109% |
| CCN(CC)CCNC(=O)c1c(C)[nH]c(/C=C2\C(=O)Nc3ccc(F)cc32)c1C | 56.8% |
| c1ccc(-c2[nH]ncc2-c2ccnc3ccccc23)nc1 | 90.6% |
| Cc1cc2ncc(-c3ccccc3)nc2cc1C | 102% |
| N#C/C(=C\c1ccc(O)c(O)c1)C(=O)NCc1ccccc1 | 95.8% |
| O=c1cc(-c2cccc3c2Sc2ccccc2S3)oc(N2CCOCC2)c1 | 52.3% |
| Cc1cn(-c2cc(NC(=O)c3ccc(C)c(Nc4nccc(-c5cccnc5)n4)c3)cc(C(F)(F)F)c2)cn1 | 97.8% |
| Ic1cccc(CSc2nnc(-c3ccncc3)o2)c1 | 106% |
| CN(C)C[C@H]1CCn2c(c(C3=C(c4cn(C)c5ccccc45)C(=O)NC3=O)c3ccccc32)C1 | 83.1% |
| Nc1cccc(-c2cc3c(Oc4cccc(O)c4)ncnc3[nH]2)c1 | 129% |
| O=C(NC(NC(=S)Nc1ccc(F)c([N+](=O)[O-])c1)C(Cl)(Cl)Cl)C(c1ccccc1)c1ccccc1 (stereo not shown) | 120% |
| Cn1nc2c3c(cccc31)C(=O)c1ccccc1-2 | 76.8% |
| c1ccc(-c2cnc(Nc3ccc(OCCN4CCCC4)cc3)s2)cc1 | 120% |
| O=C(Nc1cccc(Nc2nccc(Nc3cccc(C(F)(F)F)c3)n2)c1)C1CC1 | 106% |
| COc1cc2ncnc(Nc3cccc(Cl)c3)c2cc1OC | 99.4% |
| O=C1c2ccccc2-c2n[nH]c3cccc1c23 | 55.3% |
| O=C1C(Cl)=C(N2C(=O)CCC2=O)C(=O)c2ccccc21 | 101% |
| COc1cc2ncnc(Nc3ccc(O)c(Br)c3)c2cc1OC | 73.3% |
| C[C@@H]1CCN(C(=O)CC#N)C[C@@H]1N(C)c1ncnc2[nH]ccc12 | 96.5% |
| N#Cc1c(NC(=O)c2cccc3ccccc23)sc2c1CCCC2 | 95.3% |
| Cc1nc2cc3nc(-c4cccs4)cnc3cc2n1C | 91.2% |

Block 2
Target: DNA polymerase theta, ATPase domain (POLQ, Homo sapiens, UniProt O75417)
Chain of UniProt O75417 (whole entry, unmodified, looked up): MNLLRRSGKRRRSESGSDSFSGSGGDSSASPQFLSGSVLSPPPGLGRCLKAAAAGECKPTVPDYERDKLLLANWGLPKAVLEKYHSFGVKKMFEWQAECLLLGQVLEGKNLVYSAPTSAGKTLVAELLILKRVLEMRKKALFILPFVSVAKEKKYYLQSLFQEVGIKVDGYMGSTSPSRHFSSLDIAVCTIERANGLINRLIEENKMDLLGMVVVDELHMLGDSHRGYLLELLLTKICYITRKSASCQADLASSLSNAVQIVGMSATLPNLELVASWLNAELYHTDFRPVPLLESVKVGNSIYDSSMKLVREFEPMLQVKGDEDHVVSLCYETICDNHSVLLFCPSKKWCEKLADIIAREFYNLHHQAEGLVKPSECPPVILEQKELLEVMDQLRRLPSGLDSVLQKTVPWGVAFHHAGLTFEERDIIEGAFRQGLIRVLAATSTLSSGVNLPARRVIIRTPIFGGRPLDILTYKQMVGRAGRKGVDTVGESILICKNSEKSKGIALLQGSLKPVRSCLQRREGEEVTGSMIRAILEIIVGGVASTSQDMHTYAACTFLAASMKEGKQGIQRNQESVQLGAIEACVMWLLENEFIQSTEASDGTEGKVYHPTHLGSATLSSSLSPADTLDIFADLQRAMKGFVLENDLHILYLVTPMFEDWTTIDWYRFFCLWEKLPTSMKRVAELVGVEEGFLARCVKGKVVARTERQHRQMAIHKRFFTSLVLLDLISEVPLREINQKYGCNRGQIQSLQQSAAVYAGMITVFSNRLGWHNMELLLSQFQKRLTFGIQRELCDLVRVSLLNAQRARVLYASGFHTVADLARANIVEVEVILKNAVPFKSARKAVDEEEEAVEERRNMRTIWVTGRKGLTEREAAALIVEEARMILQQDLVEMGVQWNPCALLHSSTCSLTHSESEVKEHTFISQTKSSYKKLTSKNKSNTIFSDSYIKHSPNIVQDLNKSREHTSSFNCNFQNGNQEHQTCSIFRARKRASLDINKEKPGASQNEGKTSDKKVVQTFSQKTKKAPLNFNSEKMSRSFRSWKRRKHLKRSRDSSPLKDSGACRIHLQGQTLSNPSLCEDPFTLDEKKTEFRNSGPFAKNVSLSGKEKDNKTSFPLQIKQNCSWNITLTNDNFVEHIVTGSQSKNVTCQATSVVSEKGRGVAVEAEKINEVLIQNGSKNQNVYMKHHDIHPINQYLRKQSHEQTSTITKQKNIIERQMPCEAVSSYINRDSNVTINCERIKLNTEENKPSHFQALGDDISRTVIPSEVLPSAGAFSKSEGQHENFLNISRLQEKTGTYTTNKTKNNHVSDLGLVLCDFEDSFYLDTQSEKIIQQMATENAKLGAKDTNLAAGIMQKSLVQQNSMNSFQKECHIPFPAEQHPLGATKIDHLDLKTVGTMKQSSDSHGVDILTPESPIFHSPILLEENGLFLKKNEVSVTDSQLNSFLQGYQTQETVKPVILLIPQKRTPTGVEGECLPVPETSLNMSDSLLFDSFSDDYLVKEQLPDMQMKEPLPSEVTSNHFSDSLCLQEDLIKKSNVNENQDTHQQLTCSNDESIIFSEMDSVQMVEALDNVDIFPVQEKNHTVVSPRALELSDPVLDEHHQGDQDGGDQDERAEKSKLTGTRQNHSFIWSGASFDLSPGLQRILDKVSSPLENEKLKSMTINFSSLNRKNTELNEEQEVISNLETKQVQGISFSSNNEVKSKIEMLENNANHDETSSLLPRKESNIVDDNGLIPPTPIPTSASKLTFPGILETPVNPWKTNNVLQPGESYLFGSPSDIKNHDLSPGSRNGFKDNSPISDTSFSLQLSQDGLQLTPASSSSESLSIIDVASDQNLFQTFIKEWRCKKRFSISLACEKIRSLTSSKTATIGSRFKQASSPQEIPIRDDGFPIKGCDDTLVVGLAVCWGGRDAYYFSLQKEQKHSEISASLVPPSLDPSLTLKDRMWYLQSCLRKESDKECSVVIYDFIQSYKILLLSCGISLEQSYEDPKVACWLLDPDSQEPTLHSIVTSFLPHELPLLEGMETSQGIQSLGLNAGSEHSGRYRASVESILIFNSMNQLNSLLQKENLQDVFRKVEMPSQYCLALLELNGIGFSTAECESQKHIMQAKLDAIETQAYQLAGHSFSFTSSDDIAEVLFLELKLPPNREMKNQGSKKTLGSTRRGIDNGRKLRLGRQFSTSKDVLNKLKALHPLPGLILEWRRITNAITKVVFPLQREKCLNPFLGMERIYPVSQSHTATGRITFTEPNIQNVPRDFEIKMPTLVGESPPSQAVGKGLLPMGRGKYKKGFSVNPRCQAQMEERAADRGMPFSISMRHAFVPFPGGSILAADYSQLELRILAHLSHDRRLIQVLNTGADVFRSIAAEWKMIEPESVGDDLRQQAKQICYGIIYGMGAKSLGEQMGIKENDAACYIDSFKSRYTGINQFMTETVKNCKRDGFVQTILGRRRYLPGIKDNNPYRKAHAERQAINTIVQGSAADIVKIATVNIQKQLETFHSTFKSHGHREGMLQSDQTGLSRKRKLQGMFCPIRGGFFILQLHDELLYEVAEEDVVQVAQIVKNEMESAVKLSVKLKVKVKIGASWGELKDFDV
Read-out: enzyme activity
Mode: inhibitor
Tested at: 77 µM
Baseline: untreated
| SMILES | remaining activity |
| --- | --- |
| CNC(=O)c1cc(Oc2ccc(NC(=O)Nc3ccc(Cl)c(C(F)(F)F)c3)cc2)ccn1 | 99.5% and 94% and 95.3% and 102% and 86.8% |
| Oc1cc2c(cc1O)[C@@H]1c3ccc(O)c(O)c3OC[C@]1(O)C2 | 98.8% |
| OC(CCN1CCCCC1)(c1ccccc1)c1ccccc1 | 97% |
| CCCCCCCCc1ccc(-c2ccc(C(=O)O)cc2)cc1 | 99.1% |
| O=c1c(-c2ccc(O)cc2)coc2c([C@@H]3O[C@H](CO)[C@@H](O)[C@H](O)[C@H]3O)c(O)ccc12 | 89.6% |
| Cn1nnnc1SCC1=C(C(=O)O)N2C(=O)[C@@H](NC(=O)[C@H](O)c3ccccc3)[C@H]2SC1 | 100% |
| O=C1CC2(CCCC2)CC(=O)N1CCCCN1CCN(c2ncccn2)CC1 | 98.8% |
| Nc1cc(=O)[nH]c(N)n1 | 113% |
| CCCOc1cc(N)ccc1C(=O)OCCN(CC)CC | 105% |
| Nc1ccc(-c2ccc3ccccc3n2)cc1 | 101% |
| Clc1cccc(Cl)c1NC1=NCCN1 | 101% |
| Nc1ncnc2c1ncn2C1CCCC1 | 101% |
| COc1ccc(C2(O)OC(=O)C(c3ccc4c(c3)OCO4)=C2Cc2cc(OC)c(OC)c(OC)c2)cc1 (stereo not shown) | 90.6% |
| COc1cc([C@H]2Oc3cc([C@H]4Oc5cc(O)cc(O)c5C(=O)[C@@H]4O)ccc3O[C@@H]2CO)ccc1O | 87.5% and 95.6% |
| O=S(=O)(c1ccccc1)N(CC(F)(F)F)c1ccc(C(O)(C(F)(F)F)C(F)(F)F)cc1 | 97.8% |
| COc1ccc(-c2cc(=O)c3c(OC)c(OC)c(OC)c(OC)c3o2)cc1 | 71.4% |
| COc1cc(Nc2ncc(F)c(Nc3ccc4c(n3)N(COP(=O)(O)O)C(=O)C(C)(C)O4)n2)cc(OC)c1OC | 102% |

Block 3
Target: Calcium/calmodulin-dependent protein kinase type II subunit alpha (CAMK2A, Homo sapiens, UniProt Q9UQM7)
Chain of UniProt Q9UQM7 (whole entry, looked up): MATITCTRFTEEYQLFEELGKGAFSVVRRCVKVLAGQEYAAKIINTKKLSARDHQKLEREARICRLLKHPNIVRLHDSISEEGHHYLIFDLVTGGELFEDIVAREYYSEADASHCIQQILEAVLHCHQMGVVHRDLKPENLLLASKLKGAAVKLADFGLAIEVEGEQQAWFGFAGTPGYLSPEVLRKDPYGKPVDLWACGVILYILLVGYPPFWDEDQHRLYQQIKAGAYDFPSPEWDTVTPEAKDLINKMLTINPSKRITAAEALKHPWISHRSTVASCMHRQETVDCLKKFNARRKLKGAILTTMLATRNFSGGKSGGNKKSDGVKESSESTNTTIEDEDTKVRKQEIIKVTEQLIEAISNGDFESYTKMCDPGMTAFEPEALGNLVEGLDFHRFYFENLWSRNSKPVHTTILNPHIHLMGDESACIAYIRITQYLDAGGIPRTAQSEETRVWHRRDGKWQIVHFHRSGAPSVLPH
Read-out: enzyme activity
Mode: inhibitor
Tested at: 10 µM
| SMILES | inhibition |
| --- | --- |
| CC1(C)CC[C@]2(C(=O)O)CCC3=C([C@@H](CCl)C[C@@H]4[C@@]5(C)C[C@H](O)[C@H](O)[C@@](C)(C(=O)O)[C@@H]5CC[C@@]34C)[C@@H]2C1 | 9% |
| CCOC(=O)c1ccc(O)c(O)c1 | 4% |
| C[C@@H]1O[C@@H](Oc2cc(O)c3c(=O)c(O)c(-c4ccc(O)cc4)oc3c2O)[C@H](O)[C@H](O[C@@H]2O[C@H](CO)[C@@H](O)[C@H](O)[C@H]2O)[C@H]1O | -7% |
| CN1CCN2c3c(cccc31)[C@@H]1CN(CCCC(=O)c3ccc(F)cc3)CC[C@@H]12 | -3% |
| C[C@@H]1CC[C@@]2(OC1)O[C@H]1C[C@H]3[C@@H]4CC=C5C[C@@H](O)C[C@@H](O[C@@H]6O[C@H](C)[C@H](O)[C@H](O[C@@H]7OC[C@@H](O)[C@H](O)[C@H]7O)[C@H]6O[C@@H]6O[C@H](CO)[C@@H](O)[C@H](O)[C@H]6O)[C@]5(C)[C@H]4CC[C@]3(C)[C@H]1[C@@H]2C | 6% |
| CC(=O)O[C@]1(C(C)=O)CC[C@H]2[C@@H]3C=C(Cl)C4=CC(=O)[C@@H]5C[C@@H]5[C@]4(C)[C@H]3CC[C@@]21C | -9% |

Block 4
Compound: CNC(=O)c1ccc(Nc2ncc(C(F)(F)F)c(NCc3nccnc3N(C)S(C)(=O)=O)n2)cc1
Method: competition with immobilised ligand
| target | assay | setting | remaining binding [%] |
| --- | --- | --- | --- |
| Protein kinase C theta type (PRKCQ, Homo sapiens, UniProt Q04759) | cell-free assay | 0.1 µM | 89 |
| Myosin light chain kinase, smooth muscle (MYLK, Homo sapiens, UniProt Q15746) | cell-free assay | 0.1 µM | 75 |
| Insulin receptor-related protein (INSRR, Homo sapiens, UniProt P14616) | cell-free assay | 0.1 µM | 95 |
| Vascular endothelial growth factor receptor 3 (FLT4, Homo sapiens, UniProt P35916) | cell-free assay | 0.1 µM | 39 |
| Receptor-type tyrosine-protein kinase FLT3 (FLT3, Homo sapiens, UniProt P36888, K663Q) | cell-free assay | 0.1 µM | 21 |
| Serine/threonine-protein kinase WNK4 (WNK4, Homo sapiens, UniProt Q96J92) | cell-free assay | 0.1 µM | 81 |
| Hepatocyte growth factor receptor (MET, Homo sapiens, UniProt P08581) | cell-free assay | 0.1 µM | 66 |
| Hepatocyte growth factor receptor (MET, Homo sapiens, UniProt P08581, Y1235D) | cell-free assay | 0.1 µM | 71 |
| Mitogen-activated protein kinase kinase kinase 11 (MAP3K11, Homo sapiens, UniProt Q16584) | cell-free assay | 0.1 µM | 35 |
| Serine/threonine-protein kinase Sgk2 (SGK2, Homo sapiens, UniProt Q9HBY8) | cell-free assay | 0.1 µM | 96 |
| Beta-adrenergic receptor kinase 1 (GRK2, Homo sapiens, UniProt P25098) | cell-free assay | 0.1 µM | 89 |
| Phosphatidylinositol 4,5-bisphosphate 3-kinase catalytic subunit alpha isoform (PIK3CA, Homo sapiens, UniProt P42336, E542K) | cell-free assay | 0.1 µM | 49 |
| Mitogen-activated protein kinase kinase kinase kinase 4 (MAP4K4, Homo sapiens, UniProt O95819) | cell-free assay | 0.1 µM | 98 |
| Serine/threonine-protein kinase N2 (PKN2, Homo sapiens, UniProt Q16513) | cell-free assay | 0.1 µM | 37 |
| Rho-associated protein kinase 2 (ROCK2, Homo sapiens, UniProt O75116) | cell-free assay | 0.1 µM | 100 |
| Casein kinase I isoform delta (CSNK1D, Homo sapiens, UniProt P48730) | cell-free assay | 0.1 µM | 98 |
| Myosin-IIIb (MYO3B, Homo sapiens, UniProt Q8WXR4) | binding | 0.1 µM | 100 |
| eIF-2-alpha kinase GCN2, C-terminal kinase domain (EIF2AK4, Homo sapiens, UniProt Q9P2K8, S808G) | cell-free assay | 0.1 µM | 27 |
| Receptor-type tyrosine-protein kinase FLT3 (FLT3, Homo sapiens, UniProt P36888, D835V) | binding | 1 µM | 0.2 |
